Measured values of several laboratories.
Compare with care: the assays were run in different laboratories. “And” joins repeats or separate records; there may be more than shown. Numbers after ± are the reported error.
UniProt Q9NYA1, sequence (whole entry, looked up): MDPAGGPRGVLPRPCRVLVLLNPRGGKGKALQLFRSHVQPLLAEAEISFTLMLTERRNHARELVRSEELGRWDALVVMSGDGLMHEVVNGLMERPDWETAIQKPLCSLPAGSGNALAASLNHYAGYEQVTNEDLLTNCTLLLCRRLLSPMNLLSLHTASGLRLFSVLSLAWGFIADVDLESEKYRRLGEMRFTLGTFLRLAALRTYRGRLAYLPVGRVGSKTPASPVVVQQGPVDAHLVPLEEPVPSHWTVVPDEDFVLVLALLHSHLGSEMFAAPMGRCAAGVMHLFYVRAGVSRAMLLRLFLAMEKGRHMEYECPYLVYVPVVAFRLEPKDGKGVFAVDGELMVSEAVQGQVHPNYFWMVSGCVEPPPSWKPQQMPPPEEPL
UniProt P25025, sequence (whole entry, looked up): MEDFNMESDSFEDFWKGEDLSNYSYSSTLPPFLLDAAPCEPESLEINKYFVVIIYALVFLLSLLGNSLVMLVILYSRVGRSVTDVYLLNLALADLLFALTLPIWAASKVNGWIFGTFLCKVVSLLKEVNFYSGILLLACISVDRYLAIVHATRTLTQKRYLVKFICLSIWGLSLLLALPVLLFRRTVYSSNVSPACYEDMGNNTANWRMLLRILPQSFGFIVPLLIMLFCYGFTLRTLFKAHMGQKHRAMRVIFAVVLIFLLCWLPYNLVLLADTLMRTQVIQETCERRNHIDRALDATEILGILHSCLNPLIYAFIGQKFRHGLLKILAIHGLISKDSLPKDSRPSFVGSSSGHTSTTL
UniProt Q8IYT8, sequence (whole entry, looked up): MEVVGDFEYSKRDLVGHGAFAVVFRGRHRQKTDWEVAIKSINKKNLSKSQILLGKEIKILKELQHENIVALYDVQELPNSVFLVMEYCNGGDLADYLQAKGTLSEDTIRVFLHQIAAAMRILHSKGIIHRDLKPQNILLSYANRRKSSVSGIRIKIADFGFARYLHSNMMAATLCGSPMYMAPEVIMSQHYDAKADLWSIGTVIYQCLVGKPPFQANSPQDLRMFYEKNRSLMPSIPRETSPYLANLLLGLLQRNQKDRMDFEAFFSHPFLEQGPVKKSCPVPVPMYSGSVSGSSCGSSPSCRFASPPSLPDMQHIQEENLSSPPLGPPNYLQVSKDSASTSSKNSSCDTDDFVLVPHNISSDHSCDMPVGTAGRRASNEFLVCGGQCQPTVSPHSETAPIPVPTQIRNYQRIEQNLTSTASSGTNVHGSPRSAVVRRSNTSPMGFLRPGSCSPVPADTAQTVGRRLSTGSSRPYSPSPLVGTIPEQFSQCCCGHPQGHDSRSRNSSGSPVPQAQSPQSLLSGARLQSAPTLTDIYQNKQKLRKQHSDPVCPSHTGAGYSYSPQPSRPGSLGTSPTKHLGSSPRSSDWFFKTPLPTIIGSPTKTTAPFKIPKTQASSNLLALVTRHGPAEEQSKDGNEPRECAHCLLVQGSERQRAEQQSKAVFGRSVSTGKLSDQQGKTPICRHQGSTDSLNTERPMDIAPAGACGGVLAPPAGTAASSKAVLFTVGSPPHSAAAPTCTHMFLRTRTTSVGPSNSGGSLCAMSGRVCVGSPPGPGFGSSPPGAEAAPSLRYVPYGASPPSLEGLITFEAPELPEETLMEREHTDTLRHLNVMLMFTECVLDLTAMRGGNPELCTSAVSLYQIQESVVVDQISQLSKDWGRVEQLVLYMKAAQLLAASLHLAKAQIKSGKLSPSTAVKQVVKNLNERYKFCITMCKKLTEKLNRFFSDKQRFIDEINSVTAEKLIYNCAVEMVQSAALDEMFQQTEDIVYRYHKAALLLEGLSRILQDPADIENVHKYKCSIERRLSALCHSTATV
UniProt Q15418, sequence (whole entry, looked up): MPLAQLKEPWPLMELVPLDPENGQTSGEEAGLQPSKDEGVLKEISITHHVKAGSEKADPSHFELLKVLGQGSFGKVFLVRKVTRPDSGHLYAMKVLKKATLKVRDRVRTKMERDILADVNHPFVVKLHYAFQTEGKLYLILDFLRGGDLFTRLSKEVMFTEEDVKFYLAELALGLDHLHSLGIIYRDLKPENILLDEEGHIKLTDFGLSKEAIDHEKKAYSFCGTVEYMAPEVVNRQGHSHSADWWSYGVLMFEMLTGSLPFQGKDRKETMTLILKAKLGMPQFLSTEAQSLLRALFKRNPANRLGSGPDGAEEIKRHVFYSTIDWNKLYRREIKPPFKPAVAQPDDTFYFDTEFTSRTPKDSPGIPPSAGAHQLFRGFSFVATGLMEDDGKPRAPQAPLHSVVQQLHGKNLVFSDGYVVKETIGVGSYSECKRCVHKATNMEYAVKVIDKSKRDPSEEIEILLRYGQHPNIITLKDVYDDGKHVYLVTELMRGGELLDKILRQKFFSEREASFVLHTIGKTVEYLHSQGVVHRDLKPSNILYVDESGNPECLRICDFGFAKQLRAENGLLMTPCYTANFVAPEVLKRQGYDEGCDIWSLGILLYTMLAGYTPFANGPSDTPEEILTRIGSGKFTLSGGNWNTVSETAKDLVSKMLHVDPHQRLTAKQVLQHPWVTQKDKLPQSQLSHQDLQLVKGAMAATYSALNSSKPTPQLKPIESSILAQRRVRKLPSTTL

| Structure (SMILES) | tested on | test | system | setting | how to read | quantity | result |
| --- | --- | --- | --- | --- | --- | --- | --- |
| Cc1cc(C(=O)Nc2nc3cccc(C)c3n2[C@H]2CCCCN(C(=O)/C=C/CN(C)C)C2)ccn1 | Trypanosoma brucei | – | STIB795, mouse acute HAT model | oral, 7.5 mg/kg once daily for 4 days, day 14 | baseline: mice | survival | 16.7% |
| CCc1ccn2c(C(=O)NC(C)c3ccccc3)c(C)nc2c1 (stereo not shown) | Micrococcus luteus | microbial growth | ATCC10240 | 2 mM | – | inhibition zone | 15 mm |
| Cc1sc2c(c1C)C(c1ccc(Cl)cc1)=NC(CC(=O)OC(C)(C)C)c1nnc(C)n1-2 (stereo not shown) | CXCR2 (Homo sapiens, UniProt P25025) | specific binding, agonist radioligand binding | – | 1 µM | – | inhibition | -5% |
| CN[C@@H]1[C@H](O)[C@H](NC)[C@H]2O[C@]3(O)[C@H](O[C@@H]2[C@H]1O)O[C@H](C)C[C@H]3NC(=O)Cc1ccccc1 | Burkholderia cepacia | microbial growth, broth dilution | ATCC25416 | – | – | MIC | > 200 µg/mL |
| CCCC/C=C/C(=O)N[C@@H](Cc1csc2ccccc12)C(=O)N[C@H]1COC(=O)[C@@H]2C[C@@H](C)CN2C(=O)[C@H](C)NC(=O)[C@@H]2CCCCN2C(=O)[C@@H]2CCCN2C1=O | human coronavirus 229E | – | Huh-7 | concentration not given, unit not given | baseline: DMSO | viral RNA release | 0.000424 and 0.000332 and 0.000303 |
| Cc1ccc(CNC(=O)Cc2c(C)nc3ccc(C)cn23)cc1 | Bacillus subtilis | microbial growth | ATCC6633 | 2 mM, 20 h | – | inhibition zone | 0 mm |
| CC(C)(C)C(=O)OCOP(=O)(OCOC(=O)C(C)(C)C)C1CCCN(O)C1=O (stereo not shown) | SK-MEL-2 | – | – | – | – | log LC50 | -4.34 log M |
| O=C(CCN(CCC(=O)N[C@@H](Cc1c[nH]c2ccccc12)C(=O)O)C(=O)CCN(CCC(=O)N(CCC(=O)N[C@@H](Cc1c[nH]c2ccccc12)C(=O)O)CCC(=O)N[C@@H](Cc1c[nH]c2ccccc12)C(=O)O)C(=O)[C@H]1C[C@@H](C(=O)N(CCC(=O)N(CCC(=O)N[C@@H](Cc2c[nH]c3ccccc23)C(=O)O)CCC(=O)N[C@@H](Cc2c[nH]c3ccccc23)C(=O)O)CCC(=O)N(CCC(=O)N[C@@H](Cc2c[nH]c3ccccc23)C(=O)O)CCC(=O)N[C@@H](Cc2c[nH]c3ccccc23)C(=O)O)C[C@@H](C(=O)N(CCC(=O)N(CCC(=O)N[C@@H](Cc2c[nH]c3ccccc23)C(=O)O)CCC(=O)N[C@@H](Cc2c[nH]c3ccccc23)C(=O)O)CCC(=O)N(CCC(=O)N[C@@H](Cc2c[nH]c3ccccc23)C(=O)O)CCC(=O)N[C@@H](Cc2c[nH]c3ccccc23)C(=O)O)C1)N[C@@H](Cc1c[nH]c2ccccc12)C(=O)O | human coronavirus 229E | viral replication | – | – | – | EC50 | 40 ± 0.2 µM |
| CN(C)[C@H]1C[C@@]23CC[C@@]4(O2)C(=CC[C@]2(C)[C@@H](c5ccc6ccncc6c5)CC[C@H]24)C=C3[C@@H](O)[C@@H]1O | Ribosomal protein S6 kinase alpha-1, kinase domain 2 (RPS6KA1, Homo sapiens, UniProt Q15418) | ATP probe labelling, inhibitor, KiNativ profiling | – | 0.1 µM | – | inhibition | -8.1% |
| CC(C)CC(C(=O)N1CC2(CC1C#N)C(=O)Nc1ccccc12)N(C)C(=O)c1cc2c(F)cc(F)c(F)c2[nH]1 (stereo not shown) | Human coronavirus 229E | cytopathic effect | MRC5 | 0.3383 µM | – | inhibition | 101% |
| O=C(Nc1ccccc1SSc1ccccc1NC(=O)c1ccccc1)c1ccccc1 | Influenza A virus | viral replication | MDCK, A/NWS/33 (H1N1) | – | baseline: CC50 over EC50 | selectivity index | 0.18 ± 0.035 |
| CC1(C)CCC2(C(=O)NCc3ccccc3)CCC3(C)C(=CCC4C5(C)CCC(OC(=O)C6CC(OC(=O)c7ccc(Cl)c(Cl)c7)CN6C(=O)c6ccc(Cl)c(Cl)c6)C(C)(C)C5CCC43C)C2C1 (stereo not shown) | Influenza A virus | viral replication | MDCK, A/WSN/1933 (H1N1) | 48 h | – | EC50 | > 20 µM |
| Oc1ccc(Br)cc1-c1nc2cc(C(F)(F)F)ccc2s1 | human coronavirus 229E | – | – | concentration not given, 12 h, compound not removed, unit not given | baseline: DMSO | extracellular viral RNA | 0.778 and 0.819 and 1.09 |
| Cc1ccc(NS(=O)(=O)c2c(C(=O)N3CCCCCC3)c(C)n(C)c2C)c(Cl)c1 | Fowlpox virus | viral infection | CEF | 11.11 µM | baseline: untreated | infection | 94.9% and 110% and 83.6% |
| CC(C)C[C@@H]1NC(=O)[C@@H](Cc2c[nH]c3ccccc23)NC(=O)[C@H](CCCNC(=N)N)NC(=O)[C@@H](CCC(=O)O)NC(=O)[C@H](CCC(N)=O)NC(=O)[C@@H](CCC(=O)O)NC(=O)[C@H](CCCNC(=N)N)NC(=O)[C@@H](Cc2c[nH]c3ccccc23)NC1=O | – | refers to: IL2 | LDLr-/- mouse on Western diet, liver | dose not given, 4 weeks | – | cytokine level | 80 ± 24 pg/g tissue |
| Cc1cc(Oc2nc(N3CC[C@@H](c4ccncc4)C3)ncc2F)[nH]n1 | Mycobacterium tuberculosis | – | THP-1, H37Rv non-replicating | 0.09491 µM, day 4 plus 1 | – | normalised growth | 24.4% and 14.9% |
| CC1(C)CCC2(C(=O)NCc3ccccc3)CCC3(C)C(=CCC4C5(C)CCC(OC(=O)C6CC(OC(=O)c7ccc(OCc8ccccc8)c(OCc8ccccc8)c7)CN6C(=O)c6ccc(OCc7ccccc7)c(OCc7ccccc7)c6)C(C)(C)C5CCC43C)C2C1 (stereo not shown) | Influenza A virus | viral replication | MDCK, A/WSN/1933 (H1N1) | 48 h | – | EC50 | 15.4 ± 1.81 µM |
| CN[C@@H]1[C@H](O)[C@H](NC)[C@H]2O[C@]3(O)[C@H](O[C@@H]2[C@H]1O)O[C@H](C)C[C@H]3NC(=O)Cc1ccccn1 | Mycolicibacterium fortuitum | microbial growth | ATCC6841 | – | – | MIC | 25 to 50 µg/mL |
| Cc1ccc(N2CC3CC(C2)N3C)cc1C(=O)NC1(c2ccc3c4c(cccc24)C(=O)N3C)CC1 | human coronavirus 229E | viral replication | Huh-7 | 100 µM | – | inhibition | 100% |
| Cc1ccc2nc(C)c(C(=O)C(=O)N(C)C)n2c1 | Mycobacteroides chelonae | microbial growth | – | 72 h | – | MIC | > 128 µM |

| Structure (SMILES) | tested on | test | system | setting | how to read | quantity | result |
| --- | --- | --- | --- | --- | --- | --- | --- |
| COc1ccc(C(=O)OC2CC(C(=O)OC3CCC4(C)C(CCC5(C)C4CC=C4C6CC(C)(C)CCC6(C(=O)NCc6ccccc6)CCC45C)C3(C)C)N(C(=O)c3ccc(OC)c(OC)c3)C2)cc1OC (stereo not shown) | Influenza A virus | – | MDCK, A/WSN/1933 (H1N1) | – | baseline: CC50 over EC50 | selectivity index | > 24.9 |
| CCc1ccn2c(C(=O)NCc3ccc(C)cc3)c(C)nc2c1 | Bacillus subtilis | microbial growth | ATCC6633 | 2 mM | – | inhibition zone | 0 mm |
| CN[C@@H]1[C@H](O)[C@H](NC)[C@H]2O[C@]3(O)[C@H](O[C@@H]2[C@H]1O)O[C@H](C)C[C@H]3NC(=O)Cc1cscn1 | Burkholderia cepacia | microbial growth, broth dilution | ATCC25416 | – | – | MIC | > 200 µg/mL |
| O=C1NC2(CC2)COc2ncc(F)cc2[C@H]2COCCN2c2ccn3ncc1c3n2 | – | – | Sprague-Dawley rat, male, serum | oral, 2.5 mg/kg/day, end of treatment, 4-week subacute toxicity | – | serum triglycerides | 0.34 ± 0.08 mmol/L |
| CS(C)(=O)=Nc1ccc(-c2ccc(-c3nc4cc(O[C@@H]5CO[C@H]6[C@@H]5OC[C@H]6O)[nH]c4cc3F)cc2)cc1 | ULK2 (Homo sapiens, UniProt Q8IYT8) | enzyme activity, inhibitor | – | 10 µM | – | inhibition | -4% |
| CC(C)[C@H]1NC(=O)C[C@H]2/C=C/CCSSC[C@@H](NC1=O)C(=O)N[C@H](Cc1cccc3ccccc13)C(=O)NCC(=O)O2 | SPHK1 (Homo sapiens, UniProt Q9NYA1) | enzyme activity, inhibitor | – | 10 µM | – | inhibition | -3.6% |
| Cc1ccn2c(-c3csc(Nc4ccccn4)n3)c(C)nc2c1 | Mycobacterium bovis BCG | – | – | concentration not given | – | activity | inactive |
| COc1ccccc1-c1n[nH]c2nc(N[C@H]3CC[C@H](NS(=O)(=O)CC(C)C)CC3)ncc12 | – | bead binding, competition bead pull-down, refers to: LINJ.33.0950 | Leishmania donovani extract | 10 µM | baseline: vehicle | relative abundance | 0.87 |
| Cc1ccc2nc(C)c(C(=O)NCc3ccccc3)n2c1 | Bacillus subtilis | microbial growth | ATCC6633 | 2 mM | – | inhibition zone | 0 mm |
| CC1(C)[C@H](NC(=O)/C(=N\OCC(=O)N2CCC(C(=O)O)C2)c2nsc(N)n2)C(=O)N1OS(=O)(=O)O (stereo partly shown) | Salmonella enterica Typhi | agar dilution | susceptible | – | – | MIC | 4 µg/mL |
| Cc1ccc(-c2nc3ccc(C)cn3c2C(=O)C(=O)NCc2ccc(N(C)C)cc2)cc1 | Micrococcus luteus | microbial growth | ATCC10240 | 2 mM, 20 h | – | inhibition zone | 0 mm |
| CC(=O)N[C@H]1[C@H]([C@H](O)[C@H](O)CO)OC(C(=O)O)=C(C/C=C/c2ccc(C)cc2)[C@@H]1O | Influenza A virus | viral replication | A/California/07/2009 (H1N1) | 72 h | – | EC50 | 36 µM |
| COc1ccc(C(=O)N2CC(OC(=O)c3ccc(F)c(F)c3)CC2C(=O)OC2CCC3(C)C(CCC4(C)C3CC=C3C5CC(C)(C)CCC5(C(=O)NCc5ccccc5)CCC34C)C2(C)C)cc1OC (stereo not shown) | Influenza A virus | viral replication | MDCK, A/WSN/1933 (H1N1) | 48 h | – | EC50 | 3.63 ± 0.38 µM |
| CCc1ccn2c(C(=O)NCc3ccccc3)c(C)nc2c1 | Bacillus subtilis | microbial growth | ATCC6633 | 2 mM, 20 h | – | inhibition zone | 0 mm |
| CC(C)(O/N=C(\C(=O)N[C@@H]1C(=O)N(OS(=O)(=O)O)C1(C)C)c1nsc(N)n1)C(=O)O | Salmonella enterica Typhi | agar dilution | susceptible | – | – | MIC | 32 µg/mL |
| O=C1NC(=O)c2c1c1cc(F)c[n+]3c1c1c2c2cc(O)ccc2[n]1[Ru-4]312([N]=C=S)[S+]3CC[S+]1CC[S+]2CC3 (stereo not shown) | MAP3K5 (Homo sapiens, UniProt Q99683) | enzyme activity | – | 100 nM, human enzyme, together with: 10 µM ATP | baseline: untreated | remaining activity | 114% |
| CC1(C)C(NC(=O)C(=NOCC(=O)N2CC3CCCC3C2C(=O)O)c2csc(N)n2)C(=O)N1OS(=O)(=O)O (stereo not shown) | Salmonella enterica Typhi | agar dilution | susceptible | – | – | MIC | 1 µg/mL |
| COc1ccccc1-c1n[nH]c2nc(NC3CCN(C(=O)Cc4ccc(F)cc4F)CC3)ncc12 | – | bead binding, competition bead pull-down, refers to: LINJ.25.2090 | Leishmania donovani extract | 10 µM | baseline: vehicle | relative abundance | 1.03 |
| C#CCO/N=C(\C(=O)N[C@@H]1C(=O)N(OS(=O)(=O)O)C1(C)C)c1csc(N)n1 | Salmonella enterica Typhi | agar dilution | susceptible | – | – | MIC | 0.5 µg/mL |
| CC[C@H](C)[C@H](NC(=O)[C@H](CO)NC(=O)[C@H](Cc1ccc(O)cc1)NC(=O)[C@H](Cc1ccc(O)cc1)NC(=O)[C@H](CC(N)=O)NC(=O)CNC(=O)[C@H](CO)NC(=O)[C@H](Cc1ccc(O)cc1)NC(=O)[C@H](CO)NC(=O)[C@H](CO)NC(=O)[C@H](CC(N)=O)NC(=O)COCCOCCNC(=O)CN1CCN(CC(=O)O)CCN(CC(=O)O)CCN(CC(=O)O)CC1)C(=O)N[C@@H](CC(C)C)C(N)=O [copper-64 labelled] | – | dynamic PET | KPC mouse Ptf1a-CreER tdTomato, metastases | intravenous, 4.6 MBq/mouse, 9.5 min, 84 d after tamoxifen | – | tissue uptake | 14.4 %ID/mL |

For quick reference, copied from above:
| Structure (SMILES) | tested on | test | system | setting | how to read | quantity | result |
| --- | --- | --- | --- | --- | --- | --- | --- |
| CC(C)C[C@@H]1NC(=O)[C@@H](Cc2c[nH]c3ccccc23)NC(=O)[C@H](CCCNC(=N)N)NC(=O)[C@@H](CCC(=O)O)NC(=O)[C@H](CCC(N)=O)NC(=O)[C@@H](CCC(=O)O)NC(=O)[C@H](CCCNC(=N)N)NC(=O)[C@@H](Cc2c[nH]c3ccccc23)NC1=O | – | refers to: IL2 | LDLr-/- mouse on Western diet, liver | dose not given, 4 weeks | – | cytokine level | 80 ± 24 pg/g tissue |
| CCCC/C=C/C(=O)N[C@@H](Cc1csc2ccccc12)C(=O)N[C@H]1COC(=O)[C@@H]2C[C@@H](C)CN2C(=O)[C@H](C)NC(=O)[C@@H]2CCCCN2C(=O)[C@@H]2CCCN2C1=O | human coronavirus 229E | – | Huh-7 | concentration not given, unit not given | baseline: DMSO | viral RNA release | 0.000424 and 0.000332 and 0.000303 |
| O=C(Nc1ccccc1SSc1ccccc1NC(=O)c1ccccc1)c1ccccc1 | Influenza A virus | viral replication | MDCK, A/NWS/33 (H1N1) | – | baseline: CC50 over EC50 | selectivity index | 0.18 ± 0.035 |
| CC1(C)CCC2(C(=O)NCc3ccccc3)CCC3(C)C(=CCC4C5(C)CCC(OC(=O)C6CC(OC(=O)c7ccc(OCc8ccccc8)c(OCc8ccccc8)c7)CN6C(=O)c6ccc(OCc7ccccc7)c(OCc7ccccc7)c6)C(C)(C)C5CCC43C)C2C1 (stereo not shown) | Influenza A virus | viral replication | MDCK, A/WSN/1933 (H1N1) | 48 h | – | EC50 | 15.4 ± 1.81 µM |
